Assay results gathered from unrelated publications.
Every numbered part comes from another study and shows a few of its results, in no order.

Study 1
Target: Sal-like protein 4, full length isoform A (SALL4, Homo sapiens, UniProt Q9UJQ4, residues 1-1053)
Sequence of UniProt Q9UJQ4 (whole entry, looked up): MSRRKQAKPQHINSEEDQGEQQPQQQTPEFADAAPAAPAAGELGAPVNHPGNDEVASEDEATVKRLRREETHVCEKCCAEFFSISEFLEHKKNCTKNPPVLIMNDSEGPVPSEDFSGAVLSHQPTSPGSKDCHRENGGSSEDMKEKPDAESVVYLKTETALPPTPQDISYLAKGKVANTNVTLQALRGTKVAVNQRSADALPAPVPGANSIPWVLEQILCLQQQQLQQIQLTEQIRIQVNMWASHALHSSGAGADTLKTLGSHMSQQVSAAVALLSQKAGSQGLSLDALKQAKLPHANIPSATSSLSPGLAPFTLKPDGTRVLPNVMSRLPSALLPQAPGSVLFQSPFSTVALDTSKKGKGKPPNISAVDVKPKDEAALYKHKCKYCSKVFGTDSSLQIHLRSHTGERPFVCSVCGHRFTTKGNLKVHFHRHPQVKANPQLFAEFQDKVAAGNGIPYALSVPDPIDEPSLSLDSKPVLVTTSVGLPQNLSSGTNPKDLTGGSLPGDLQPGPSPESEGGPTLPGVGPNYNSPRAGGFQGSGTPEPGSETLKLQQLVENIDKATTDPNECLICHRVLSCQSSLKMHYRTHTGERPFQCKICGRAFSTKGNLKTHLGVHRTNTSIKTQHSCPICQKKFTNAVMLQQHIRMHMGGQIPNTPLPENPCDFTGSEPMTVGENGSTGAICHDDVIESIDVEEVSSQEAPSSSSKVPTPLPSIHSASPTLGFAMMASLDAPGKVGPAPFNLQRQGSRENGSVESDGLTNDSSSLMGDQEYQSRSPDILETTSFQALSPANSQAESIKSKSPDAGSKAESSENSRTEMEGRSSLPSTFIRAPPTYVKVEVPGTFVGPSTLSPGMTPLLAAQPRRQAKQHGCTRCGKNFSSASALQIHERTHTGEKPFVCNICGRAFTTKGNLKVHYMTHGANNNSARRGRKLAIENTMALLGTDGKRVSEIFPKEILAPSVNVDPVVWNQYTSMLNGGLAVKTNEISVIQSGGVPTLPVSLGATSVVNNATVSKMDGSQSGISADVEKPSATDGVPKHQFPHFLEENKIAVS
Technique: universal PBM
Molecule type: double-stranded DNA, one strand shown
Medium: in vitro
Tested at: 600 nM
Notes: 8-mer, flanks averaged, mean of replicates
Reading: higher = stronger binding
| Oligonucleotide | E-score |
| --- | --- |
| AAAGCTCC | -0.213 |
| GTCTCTCA | -0.136 |
| AGCTTCAT | 0.0565 |
| GGCCGGCC | -0.321 |
| ATCAACGA | 0.0462 |
| AATGGTTC | 0.0807 |
| AGCCAAGC | -0.331 |
| CAAACGAC | 0.0291 |
| GAGAAAGA | 0.125 |
| GTAGCATA | 0.166 |
| CAAGCTGA | -0.0735 |
| CAGAGGTA | 0.039 |
| ATGCTGTC | -0.00212 |
| ACGACTCT | 0.018 |
| CGGTCTAC | -0.119 |
| CTCAGAGC | -0.273 |
| ACTAGGTA | 0.0914 |
| ACTGTATC | 0.0603 |
| TGGAACAA | 0.173 |
| AGTCATCC | -0.122 |
| AAAGAGCG | -0.106 |
| AAAGGGTC | -0.0341 |
| GGACACGA | -0.128 |
| ATAAGCGC | -0.095 |
| ACATGTAA | 0.271 |

Study 2
Target: Histone acetyltransferase KAT6A, winged helix 2, GST fusion (KAT6A, Homo sapiens, UniProt Q92794, residues 85-181)
Technique: protein binding microarray
Molecule type: double-stranded DNA, one strand shown
Medium: in vitro
Tested at: not given
Notes: 8-mer, flanks averaged, mean of 2 arrays, mostly near background
Reference: not given
Reading: higher = stronger binding
Residues (chain): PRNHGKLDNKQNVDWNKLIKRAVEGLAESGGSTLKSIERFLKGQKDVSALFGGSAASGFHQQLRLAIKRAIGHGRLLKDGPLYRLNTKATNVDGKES
| Oligonucleotide | E-score |
| --- | --- |
| AGCGCGTG | -0.14 |
| CCATAGTC | -0.0637 |
| GACGGAGC | -0.00703 |
| GTGTTGGA | -0.0159 |
| CAGAGAGG | -0.0378 |
| ATGGCCCA | 0.106 |
| ACCAGTAT | -0.154 |
| GAAAGGAA | -0.00291 |
| CCGCGTAG | 0.166 |
| ACTAATAA | 0.105 |
| CCGGGAAA | 0.179 |
| CCCCGGAC | 0.112 |
| AGGCCTAG | -0.0424 |
| GCCTACGC | 0.0773 |
| CCATGACA | 0.0243 |
| AAAAACCT | 0.162 |
| CGGACGAA | 0.244 |
| CGGACGCA | 0.177 |
| CCCTGTAA | -0.0796 |
| CGGCACGC | 0.146 |
| AGAGTAAC | 0.0182 |
| AGCACAGG | 0.15 |
| TGGATTAA | -0.145 |
| GCGAAAAC | 0.2 |
| AGGTTGGG | 0.103 |

Study 3
Target: ATP-dependent RNA helicase DDX3X, helicase core (DDX3X, Homo sapiens, UniProt O00571, residues 132-607)
Sequence of UniProt O00571 (132-607, looked up): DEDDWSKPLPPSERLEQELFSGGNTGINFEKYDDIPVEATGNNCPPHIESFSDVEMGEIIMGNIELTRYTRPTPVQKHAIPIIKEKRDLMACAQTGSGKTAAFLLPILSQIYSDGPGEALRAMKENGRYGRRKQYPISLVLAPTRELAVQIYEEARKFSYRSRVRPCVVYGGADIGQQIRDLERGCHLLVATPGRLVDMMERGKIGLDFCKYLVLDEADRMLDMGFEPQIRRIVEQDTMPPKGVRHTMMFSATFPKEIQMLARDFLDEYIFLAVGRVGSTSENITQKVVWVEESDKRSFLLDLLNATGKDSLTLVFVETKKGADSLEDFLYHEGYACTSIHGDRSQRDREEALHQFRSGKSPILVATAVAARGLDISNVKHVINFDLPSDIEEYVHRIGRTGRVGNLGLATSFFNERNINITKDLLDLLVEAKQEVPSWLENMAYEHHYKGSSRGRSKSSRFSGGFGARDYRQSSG
Technique: RNA Bind-n-Seq
Molecule type: RNA
Medium: in vitro
Tested at: 90 pmol
Notes: 4-mer, random 30-nt RNA, single round
Added: 3 µM iPr-DMDA-PatA, 2 mM ADP, 2 mM phosphate
Reference: input library
Reading: higher = stronger binding
| Oligonucleotide | 4-mer enrichment [fold] |
| --- | --- |
| UGAC | 0.992 |
| GUUU | 1 |
| UCUU | 0.895 |
| ACUG | 0.889 |
| AUCG | 0.976 |
| AUUA | 1.28 |
| AAAU | 1.47 |
| GCAG | 0.839 |
| UGCC | 0.763 |
| CGAA | 1.21 |
| UAAA | 1.46 |
| CGGU | 0.707 |
| GAGG | 1.07 |
| ACGG | 1.18 |
| GUUG | 0.881 |
| GCGC | 0.711 |
| CCCU | 1.07 |
| GACG | 1.07 |
| AUCA | 1.14 |
| GAAG | 1.35 |
| UCUA | 1 |
| GCAA | 1.03 |
| UUAG | 1.06 |
| CCAG | 1.03 |
| GCCC | 0.912 |

Study 4
Target: Ras GTPase-activating protein-binding protein 1, C-terminal RGG region (G3BP1, Homo sapiens, UniProt Q13283)
Sequence of UniProt Q13283 (whole entry, looked up): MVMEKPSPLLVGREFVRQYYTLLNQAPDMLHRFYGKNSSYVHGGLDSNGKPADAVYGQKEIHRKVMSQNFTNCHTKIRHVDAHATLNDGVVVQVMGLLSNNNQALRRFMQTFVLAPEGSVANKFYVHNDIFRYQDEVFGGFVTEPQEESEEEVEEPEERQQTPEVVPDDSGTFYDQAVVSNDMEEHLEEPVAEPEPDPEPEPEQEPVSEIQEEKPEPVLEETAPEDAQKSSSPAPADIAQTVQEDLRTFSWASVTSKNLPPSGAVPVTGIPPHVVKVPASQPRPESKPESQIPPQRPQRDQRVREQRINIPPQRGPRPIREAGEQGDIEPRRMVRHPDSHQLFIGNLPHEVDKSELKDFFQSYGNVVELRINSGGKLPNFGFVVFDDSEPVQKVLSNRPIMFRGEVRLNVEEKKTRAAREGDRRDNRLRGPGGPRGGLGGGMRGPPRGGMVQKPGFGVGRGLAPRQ
Technique: RNA Bind-n-Seq
Molecule type: RNA
Medium: in vitro
Tested at: 1 µM
Notes: whole 134-nt RNA, ends assumed
Added: 150 mM KCl
Reference: input library
Reading: higher = stronger binding
All sequences stand within: GGGAGUUCUACAGUCCGACGAUC … UGGAAUUCUCGGGUGUCAAGG
| Oligonucleotide | log2 enrichment |
| --- | --- |
| GUCCUGUGCUACACAUCGUAUGUACCGAAUCGGGGUUUUUGGGUUUUUGGGGUUUUUGGAAAGUAUUAUGUUACGCCGUUCGGAUCUGCA | -0.764 |
| UAACUUUAGAGGAGGAUCUGAUGGAUAUGGCAGUGGACGUGGAUUUGGGGAUGGCUGUAAUGGGUAUGGAGGAGGACCUGGAGGUGGCAA | -1.1 |
| UGGCCCUGGUGGCAUGCGGGGAGGAAGAGGUGGCCUCAUGGAACGUGGUGGUCCCGGUGGAAUGUUCAGAGGUGGCCGUGGUGGAGACAG | 2.27 |
| CACAGACAACACGCACCCACACAGACACAGAGGGAAGGGGUUGGGAUGGGGACAGGGUGCACAGCAGGGCGGGGUAAGACCCCAGCCCCU | -0.924 |
| UCCUGUGCUACACAUCGUAUGUACCGAAUCGGGAAAAAGGGAAAAAGGGAAAAAAAGGGAAAGUAUUAUGUUACGCCGUUCGGAUCUGCA | -0.798 |
| UGGCCCUGGUGGCAUGCGGGGAGGAAGAGGUGGCCUCAUGGAUCGUGGUGGUCCCGGUGGAAUGUUCACAGGUGGCCGUGGUGGAGACAG | 3.38 |
| CAAGUCCUGUGCUACACAUCGUAUGUACCGAAUCGGGGAAAGGGGAGGGGAGGGGAAAGUAUUAUGUUACGCCGUUCGGAUCUGCACUUC | 3.25 |
| UGGGCGGCUGCGAGAUGAGAACGGACGACCCUACUCGCCCAGUCAGUAUGCGCUCCAGUACGCCGGGGACGGCAGUGUCCUCCUCAUCCC | -0.231 |
| UAACUUUAGAGGAGGAUCUGAUGGAUAUGGCAGUGGACGUGGAUUUGGGGAUGGCUAUAAUGGGUGUGGAGGAGGACCUGGAGGUGGCAA | -0.421 |
| UAACUUUAGAGGAGGAUCUGAUGGAUAUGGCAGUGGACGUGGAUUUGGGGAUGGAUAUAAUGGGUAUGGAGGAGGACCUGGAGGUGGCAA | -0.798 |
| GUCCUGUGCUACACAUCGUAUGUACCGAAUCAAAUUUAAACCCCCAAAUUUUUUUAAAAAAGUAUUAUGUUACGCCGUUCGGAUCUGCAC | -0.312 |
| CCUGUGCUACACAUCGUAUGUACCGAAUCAAACCCCCCCAAACCCCCCCAAAUUUUUAAAAAAGUAUUAUGUUACGCCGUUCGGAUCUGC | -0.559 |
| CUGUGCUACACAUCGUAUGUACCGAAUCGGUUUUUUUGGGGUUUUUUUGGGGUUUUUUUGGGAAAGUAUUAUGUUACGCCGUUCGGAUCU | -0.93 |
| GUCCUGUGCUACACAUCGUAUGUACCGAAUCGGGGUGGGGAAAGGGGUUUUUUUGGGGAAAGUAUUAUGUUACGCCGUUCGGAUCUGCAC | 2.32 |

Study 5
Target: RNA binding protein fox-1 homolog 2, RRM domain, GST-SBP tag (RBFOX2, Homo sapiens, UniProt O43251-10, residues 100-194)
Technique: RNA Bind-n-Seq
Molecule type: RNA
Medium: in vitro
Tested at: 365 nM
Notes: natural RNA segment, single round, ends assumed
Reference: no-protein control
Reading: higher = stronger binding
All sequences stand within: GGGAGUUCUACAGUCCGACGAUC … UGGAAUUCUCGGGUGCCAA
Construct (chain): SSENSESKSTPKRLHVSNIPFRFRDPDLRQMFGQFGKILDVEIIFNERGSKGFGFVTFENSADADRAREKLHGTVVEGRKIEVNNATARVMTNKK
| Oligonucleotide | RBNS enrichment (R) |
| --- | --- |
| CUCUCUCAUGUGGUCUCUUAAUCCAGUAAUUGUAUUACUGCCAUUAAAGGAUGCAGUUAUUUUAAACAGUCUGUGAGUCUAGUCUCAUCUCUGCCCUGUCAGGGAACAAA | 0.239 |
| GGGAUGAGGUUUGUACUUUCCUGAACUUGAAUUUCAAACACUAACUGUAUCCUAUGAGUGACGUGUGUGUUGGGGGAGGGUGGGCCUGCCUGGUGUUACACAGAGCAUGG | 3.87 |
| AAGUUUAGUUUAAUGUUAGUGCAGUGACAGGAAAUACACAUUAUGCUGAUGUUGAUGACAGAAUUUAUUUGGUUGCCUUGUGUGUCAAUUGAAUGCAUACUAAACUGUAA | 0.856 |
| CAGGUAGUAGAGCAGCAGCUUCGUGCUCUCAGCGGUGGCUGGCUGGCAUUUUUCUCUAGCGUUGUGGUGCCACCUUCCCUUCUUGUCCCAAGGUUAUAAGGCCUUGUCUU | 0.371 |
| UACUCCGUGGGGAGCAUGUACAGAGCUCUGUGUAUACACAGCUUCACACCCACCAGAUUGUUACUACAGUGGGUUGGGUUUUCAUACAGACGUAAAUUUUGAGAGAAAAG | 8.01 |
| CCAUUUUGUUUUAUACAAAAAUGGGAAAAAAAAAAAAGAAAUUAUAUAAAGUUCCUAGAGUCGGUGUCUUAUUAGAGGAUUUAAAUACUGGGACUGGAAGUAUCUAACAC | 0.903 |
| AUUGUCAUCUCCAGGACUAUGAAAGAGGGAGGGUGGCGGUGUCUCUGUCUGCAAACAGUGUCAGGAUCAGAAUCAAGGACAGGAGGCAAAGUGAAGUUCACACCCAGCAC | 0.78 |
| GAAGGAAGGGGAUAGGCAGCUUUGACAGGUGCUGCUUUCAAUUCCUCUGCAACUCCUCCCCCUUUUAUUUCCCCAAUUUAAACAAAGAUUCUGCCAACUGUGGAAACUUC | 0.811 |
| UCUGAUUUGGUAUUGUGAUUUACUUCAGACCCUGAAACCAAAUAUCUGAUCUUCCAUUAGACUUAGGGGUCAUGAUAUGAGUGGAAUUUACAUUUUAGAUACUAUAGGGG | 0.36 |
| AGGGAAUCUGUUUUCUAUUUACAAGUCUGACAUCUUAAUCCCCACUGCCAAAAUGCUCCGAAAUCUAAAACGUGUUGAGCACCAACAGGAUACCACAAGUAAAAACUUUA | 0.68 |
| CUCACCUUGGGUGUAGGGGUCAGUAGCAGCCACUCGCCCUUGCUCCAGUCCUUUGGGAGCCUGUCAGGAGACAAAGCUCAGGAUGCUGCUUGUGCUAGGAACACACCCUG | 0.445 |
| UGGAAGAGAACUGGGUUUCCAGGAAAAAUCAUUUAAGUCCCAGUGCCAGACCUCCUGACCCAAACACAGGGUCAGCCACUGAGGUUCCUGACUUAUCAGUGCCCAUCACU | 0.343 |

For quick reference, copied from above (study 4):
| Oligonucleotide | log2 enrichment |
| --- | --- |
| GUCCUGUGCUACACAUCGUAUGUACCGAAUCGGGGUUUUUGGGUUUUUGGGGUUUUUGGAAAGUAUUAUGUUACGCCGUUCGGAUCUGCA | -0.764 |
| UGGGCGGCUGCGAGAUGAGAACGGACGACCCUACUCGCCCAGUCAGUAUGCGCUCCAGUACGCCGGGGACGGCAGUGUCCUCCUCAUCCC | -0.231 |
| UGGCCCUGGUGGCAUGCGGGGAGGAAGAGGUGGCCUCAUGGAACGUGGUGGUCCCGGUGGAAUGUUCAGAGGUGGCCGUGGUGGAGACAG | 2.27 |
| UAACUUUAGAGGAGGAUCUGAUGGAUAUGGCAGUGGACGUGGAUUUGGGGAUGGCUGUAAUGGGUAUGGAGGAGGACCUGGAGGUGGCAA | -1.1 |
| CACAGACAACACGCACCCACACAGACACAGAGGGAAGGGGUUGGGAUGGGGACAGGGUGCACAGCAGGGCGGGGUAAGACCCCAGCCCCU | -0.924 |
| UCCUGUGCUACACAUCGUAUGUACCGAAUCGGGAAAAAGGGAAAAAGGGAAAAAAAGGGAAAGUAUUAUGUUACGCCGUUCGGAUCUGCA | -0.798 |
| CUGUGCUACACAUCGUAUGUACCGAAUCGGUUUUUUUGGGGUUUUUUUGGGGUUUUUUUGGGAAAGUAUUAUGUUACGCCGUUCGGAUCU | -0.93 |
| UAACUUUAGAGGAGGAUCUGAUGGAUAUGGCAGUGGACGUGGAUUUGGGGAUGGAUAUAAUGGGUAUGGAGGAGGACCUGGAGGUGGCAA | -0.798 |
| UAACUUUAGAGGAGGAUCUGAUGGAUAUGGCAGUGGACGUGGAUUUGGGGAUGGCUAUAAUGGGUGUGGAGGAGGACCUGGAGGUGGCAA | -0.421 |
| GUCCUGUGCUACACAUCGUAUGUACCGAAUCGGGGUGGGGAAAGGGGUUUUUUUGGGGAAAGUAUUAUGUUACGCCGUUCGGAUCUGCAC | 2.32 |
| UGGCCCUGGUGGCAUGCGGGGAGGAAGAGGUGGCCUCAUGGAUCGUGGUGGUCCCGGUGGAAUGUUCACAGGUGGCCGUGGUGGAGACAG | 3.38 |
| CAAGUCCUGUGCUACACAUCGUAUGUACCGAAUCGGGGAAAGGGGAGGGGAGGGGAAAGUAUUAUGUUACGCCGUUCGGAUCUGCACUUC | 3.25 |
| CCUGUGCUACACAUCGUAUGUACCGAAUCAAACCCCCCCAAACCCCCCCAAAUUUUUAAAAAAGUAUUAUGUUACGCCGUUCGGAUCUGC | -0.559 |
| GUCCUGUGCUACACAUCGUAUGUACCGAAUCAAAUUUAAACCCCCAAAUUUUUUUAAAAAAGUAUUAUGUUACGCCGUUCGGAUCUGCAC | -0.312 |
